Experimental data gathered from unrelated publications.
“And” joins repeats or separate records; there may be more than shown. ± gives the spread as reported.

Compound	cell line	test	system	setting	how to read	measurement	result
COc1cc(C=NNC(=O)c2nc3ccccc3s2)ccc1O	BJ-1 fibroblasts	MTT		100 µM, 48 h		cytotoxicity	10.8%
Cc1noc(C)c1Cn1cc(N2C(=O)CN(Cc3cccc(O)c3)C2=O)cn1	human blood lymphocytes			494.3 µg/mL, 3 h, with 2% S9		aberrant cells without gaps	0%
CC(=O)Nc1cccc(-n2c(=O)n(C3CC3)c(=O)c3c(Nc4ccc(I)cc4F)n(C)c(=O)c(C)c32)c1	MeWo	resazurin		concentration not given, 72 h, unit not given	reference: DMSO	viability	0.887 and 0.531 and 0.686 and 0.593 and 0.951 and 0.633
CC(C)n1nccc1-c1ncccc1COc1cccc(O)c1C=O	MDCK	permeability basolateral to apical		1 µM, 90 min, pH 7.4 apical to 7.4 basolateral		Papp	20.1 ×10⁻⁶ cm/s and 24.4 ×10⁻⁶ cm/s
COc1ccc(Nc2cnnc3cc(-c4ccc(S(=O)(=O)N5CCN(C)CC5)cc4)ccc23)nc1	B10R mouse macrophages	cytotoxicity				TC50	9.5 µM
O=C(O)Cc1c[nH]c2ccc(O)cc12	HCT-8 infected with Cryptosporidium parvum	Hoechst nuclei count		1 mM, 24 h	reference: PBS	host cell number	0.968 ± 0.046
O=C(O)CCCOc1ccc(F)cc1-c1cc(-c2ccccc2C(F)(F)F)n(-c2ccccc2)n1	human iPSC-derived cardiomyocytes			0.2 µM		beat rate	45.5 ± 1.8 min⁻¹
C[C@@H](c1ncncc1F)[C@](O)(Cn1cncn1)c1ccc(F)cc1F	MDCK	permeability basolateral to apical		1 µM, 90 min, pH 7.4 apical to 7.4 basolateral		Papp	40.2 ×10⁻⁶ cm/s and 38.1 ×10⁻⁶ cm/s
COc1cc2ncnc(Nc3ccc(Oc4ccccc4)cc3C)c2cc1OC.O=C(O)C(F)(F)F	A-375 (BRAF V600E)			3 µM, 72 h		viability	0.883 fraction of control
CCCCC[C@H](O)/C=C/[C@H]1[C@H](O)CC(=O)[C@@H]1C/C=C\CCCC(=O)O	HCT-8 infected with Cryptosporidium parvum	Hoechst nuclei count		0.05 mM, 24 h	reference: PBS	host cell number	1.02 ± 0.107
CC(C)C[C@H](NC(=O)OCc1ccccc1)C(=O)N[C@@H](CC1CCNC1=O)C(O)S(=O)(=O)O (stereo partly drawn)	Vero-E6	CCK-8		24 h		CC50	> 800 µM
COc1cccc(-c2n[nH]c(SCc3ccccn3)n2)c1OC	CHO-WBL	micronucleus test		100 µg/mL, 3 h, added: rat liver S9		cytostasis	-2%
CC(C)C(=O)O	HCT-8 infected with Cryptosporidium parvum	Hoechst nuclei count		1 mM, 24 h	reference: PBS	host cell number	0.925 ± 0.113
Cc1c(C)c2c(c(C)c1O)CCC(C)(COc1ccc(CC3SC(=O)NC3=O)cc1)O2 (stereo not drawn)	THLE-2, 3D culture	MTT		100 µM, 72 h		viability	47%
CN1CCN(c2ncc(-c3ccc4nncc(Nc5ncc(Cl)cn5)c4c3)cn2)CC1	B10R mouse macrophages	cytotoxicity				TC50	3.5 µM
C[C@@H]1COCCN1c1nc(-c2cnc(N)s2)nc2c1C[C@@H]1COCCN21	MDCK			1 µM, 20 (unit not given)		Papp B to A	19.6 ×10⁻⁶ cm/s
O=c1[nH]c(=O)c2[nH]cnc2[nH]1	HCT-8 infected with Cryptosporidium parvum	Hoechst nuclei count		1 mM, 24 h	reference: PBS	host cell number	0.952 ± 0.114
Cc1cc(C(=O)NC(C)(C)COc2cccc3c2C(N)=NS(=O)(=O)N3)cc(C)n1	human peripheral blood lymphocytes	CBPI, concurrent micronucleus test		1500 µg/mL, 24 h	reference: vehicle control	cytotoxicity	5%

Compound	cell line	test	system	setting	how to read	measurement	result
NC(=O)NCCC[C@H](N)C(=O)O	HCT-8 infected with Cryptosporidium parvum	Hoechst nuclei count		1 mM, 24 h	reference: PBS	host cell number	1.01 ± 0.055
C[C@H]1[C@H](OC(=O)CCC(=O)O)O[C@@H]2O[C@@]3(C)CC[C@H]4[C@H](C)CC[C@@H]1[C@@]24OO3	human iPSC-derived cardiomyocytes	contraction velocity		3 d		highest non-toxic concentration	> 50 µM
Cc1ccc2ccc(C#N)c(O)c2n1	MDCK-II low-efflux (RRCK) cells			1.5 h, apical to basal		Papp	2.9 ×10⁻⁶ cm/s
CNC(=O)c1cc(Oc2ccc(NC(=O)Nc3ccc(Cl)c(C(F)(F)F)c3)cc2)ccn1	NIH/3T3	MTT		24 h		CC50	7.56 µM
CC[C@H](N)C(=O)O	HCT-8 infected with Cryptosporidium parvum	Hoechst nuclei count		1 mM, 24 h	reference: PBS	host cell number	0.983 ± 0.067
CCn1c(=O)c2c(nc(/C=C/c3ccc(OC)c(OC)c3)n2C)n(CC)c1=O	MDCK	permeability basolateral to apical		1 µM, 90 min, pH 7.4 apical to 7.4 basolateral		Papp	16.1 ×10⁻⁶ cm/s and 22.6 ×10⁻⁶ cm/s
CC(=O)Oc1ccccc1C(=O)O	human iPSC-derived cardiomyocytes			0.1 µM		beat rate	46.2 ± 0.7 min⁻¹
O=C(O)/C=C/c1c[nH]cn1	HCT-8 infected with Cryptosporidium parvum	Hoechst nuclei count		1 mM, 24 h	reference: PBS	host cell number	1.02 ± 0.07
CS(=O)(=O)Oc1ccc(C=NNC(=O)c2nc3ccccc3s2)cc1	BJ-1 fibroblasts	MTT		100 µM, 48 h		cytotoxicity	62.3%
C[C@H]1O[C@@H](O[C@H]2[C@@H](O)C[C@H](O[C@H]3[C@@H](O)C[C@H](O[C@H]4CC[C@@]5(C)[C@H](CC[C@@H]6[C@@H]5C[C@@H](O)[C@]5(C)[C@@H](C7=CC(=O)OC7)CC[C@]65O)C4)O[C@@H]3C)O[C@@H]2C)C[C@H](O)[C@@H]1O	MDCK-MDR1 cells			5 µM, pH 7.4		Papp A to B	0.59 ×10⁻⁶ cm/s
CC(=O)Nc1ccc(O)cc1	MDCK			1 µM, 90 min, pH 7.4 apical, 7.4 basolateral, basolateral to apical		mass recovery	83 ± 10%
CN(CCc1ccc(Cl)c(Oc2cc(Cl)cc(C#N)c2)c1)C(=O)CCl	MT2 T-cells, uninfected			concentration not given	reference: non-methylated 2-chloroacetamide analogue	fold increase in cytotoxicity	6 fold
C/C=C(/C)C(=O)OC[C@H]1[C@@H](Cc2ccc(C(F)(F)F)cc2)CO[C@@H]1c1ccccc1	HEK293/NF-κB-luc	CellTracker Green CMFDA		20 µM, 4.5 h, serum-free medium	reference: stimulated untreated cells	viability	85 ± 18%
O=C(O)c1ccc(NS(=O)(=O)c2ccc(Cl)c(Cl)c2)c2ncccc12	RRCK cells	passive permeability				apparent permeability	15 ×10⁻⁶ cm/s
Cc1cnc(Nc2ccc(OCCN3CCCC3)cc2)nc1Nc1cccc(S(=O)(=O)NC(C)(C)C)c1	MDCK			1 µM, 90 min, pH 7.4 apical, 7.4 basolateral, basolateral to apical		mass recovery	78 ± 3%
CC(C)C[C@H](NC(=O)[C@H](CC(C)C)NC(=O)[C@H](CCCNC(=N)N)NC(=O)[C@H](CCCCN)NC(=O)[C@H](CCCNC(=N)N)NC(=O)[C@H](CC(C)C)NC(=O)[C@H](CCCCN)NC(=O)[C@H](CCCNC(=N)N)NC(=O)[C@H](CC(C)C)NC(=O)[C@H](CC(C)C)NC(=O)[C@H](CC(C)C)NC(=O)[C@H](CCCNC(=N)N)NC(=O)[C@H](CCCCN)NC(=O)[C@H](CCCNC(=N)N)NC(=O)[C@H](CC(C)C)NC(=O)[C@H](CCCCN)NC(=O)[C@H](CCCNC(=N)N)NC(=O)[C@H](CC(C)C)NC(=O)CNC(=O)CNC(=O)CNC(=O)c1ccc2c(c1)C(=O)OC21c2ccc(O)cc2Oc2cc(O)ccc21)C(N)=O	hCMEC/D3 monolayers	BBB permeability, Transwell, measured: CF-labelled compound	EGM-2 medium	concentration not given, 1 h, apical to basal	reference: fluorescence added apically	transport ratio	5.1%
COC[C@@H](CC(C)C)NC(=O)c1ccc(C)c(C)c1	primary human lymphocytes			322 µg/mL, 4 h		mitotic index	5.1
CC(C)NCC(O)COc1cccc2ccccc12 (stereo not drawn)	C2BBe1 (Caco-2 clone)					Papp	25.2 ×10⁻⁶ cm/s
